Values quoted from earlier work as cited in several papers.
± marks the error that the study gave.
CA12: Carbonic anhydrase 12 (CA12, Homo sapiens, UniProt O43570)
UniProt O43570, sequence (whole entry, looked up): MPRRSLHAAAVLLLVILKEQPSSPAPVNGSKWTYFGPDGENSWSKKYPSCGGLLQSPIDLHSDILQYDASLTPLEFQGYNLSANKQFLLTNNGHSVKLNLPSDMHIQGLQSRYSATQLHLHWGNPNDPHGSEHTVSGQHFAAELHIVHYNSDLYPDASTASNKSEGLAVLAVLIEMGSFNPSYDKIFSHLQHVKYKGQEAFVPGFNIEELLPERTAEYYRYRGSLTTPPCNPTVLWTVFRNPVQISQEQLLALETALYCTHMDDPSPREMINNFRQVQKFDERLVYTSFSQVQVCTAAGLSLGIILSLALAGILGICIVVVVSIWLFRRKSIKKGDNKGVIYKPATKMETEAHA
CA2: Carbonic anhydrase 2 (CA2, Homo sapiens, UniProt P00918)
UniProt P13569, sequence (whole entry, unmodified, looked up): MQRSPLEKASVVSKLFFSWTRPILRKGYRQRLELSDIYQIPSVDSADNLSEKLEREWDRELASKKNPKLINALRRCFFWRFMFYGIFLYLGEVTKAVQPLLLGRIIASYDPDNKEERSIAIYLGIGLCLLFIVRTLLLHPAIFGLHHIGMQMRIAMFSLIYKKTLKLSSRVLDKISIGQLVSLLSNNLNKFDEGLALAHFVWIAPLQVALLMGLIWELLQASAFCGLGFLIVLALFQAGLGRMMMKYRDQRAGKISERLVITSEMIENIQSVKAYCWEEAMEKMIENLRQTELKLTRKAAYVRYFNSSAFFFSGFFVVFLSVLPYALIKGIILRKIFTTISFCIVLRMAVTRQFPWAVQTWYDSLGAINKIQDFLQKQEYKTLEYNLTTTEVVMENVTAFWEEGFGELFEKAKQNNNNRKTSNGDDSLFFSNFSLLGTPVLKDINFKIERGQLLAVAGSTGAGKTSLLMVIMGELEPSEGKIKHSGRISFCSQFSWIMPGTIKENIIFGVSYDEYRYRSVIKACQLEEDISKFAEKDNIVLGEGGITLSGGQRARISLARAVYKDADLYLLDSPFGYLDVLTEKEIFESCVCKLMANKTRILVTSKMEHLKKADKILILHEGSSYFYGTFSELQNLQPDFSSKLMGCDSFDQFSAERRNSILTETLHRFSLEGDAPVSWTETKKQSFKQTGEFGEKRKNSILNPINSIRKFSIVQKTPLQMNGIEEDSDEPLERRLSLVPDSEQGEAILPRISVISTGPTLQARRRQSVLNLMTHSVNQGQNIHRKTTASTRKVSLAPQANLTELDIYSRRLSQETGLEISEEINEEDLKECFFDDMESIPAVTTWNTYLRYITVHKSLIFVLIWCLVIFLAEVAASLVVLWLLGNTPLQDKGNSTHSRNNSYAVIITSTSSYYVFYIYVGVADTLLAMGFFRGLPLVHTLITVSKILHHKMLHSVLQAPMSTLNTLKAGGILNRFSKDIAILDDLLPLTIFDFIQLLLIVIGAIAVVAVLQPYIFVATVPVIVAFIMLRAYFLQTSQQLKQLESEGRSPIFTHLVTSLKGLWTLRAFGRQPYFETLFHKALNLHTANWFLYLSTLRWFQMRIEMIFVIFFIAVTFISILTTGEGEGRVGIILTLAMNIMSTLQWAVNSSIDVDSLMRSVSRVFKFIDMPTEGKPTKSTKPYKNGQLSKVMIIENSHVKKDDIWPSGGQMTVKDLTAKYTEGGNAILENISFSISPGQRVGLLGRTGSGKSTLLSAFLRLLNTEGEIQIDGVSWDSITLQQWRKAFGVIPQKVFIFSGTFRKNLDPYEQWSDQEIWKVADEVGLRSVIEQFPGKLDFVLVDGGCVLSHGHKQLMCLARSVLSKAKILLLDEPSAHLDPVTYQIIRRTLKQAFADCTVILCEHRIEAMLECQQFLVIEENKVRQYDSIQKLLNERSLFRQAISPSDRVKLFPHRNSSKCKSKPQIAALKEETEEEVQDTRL
UniProt Q9Y572, sequence (whole entry, looked up): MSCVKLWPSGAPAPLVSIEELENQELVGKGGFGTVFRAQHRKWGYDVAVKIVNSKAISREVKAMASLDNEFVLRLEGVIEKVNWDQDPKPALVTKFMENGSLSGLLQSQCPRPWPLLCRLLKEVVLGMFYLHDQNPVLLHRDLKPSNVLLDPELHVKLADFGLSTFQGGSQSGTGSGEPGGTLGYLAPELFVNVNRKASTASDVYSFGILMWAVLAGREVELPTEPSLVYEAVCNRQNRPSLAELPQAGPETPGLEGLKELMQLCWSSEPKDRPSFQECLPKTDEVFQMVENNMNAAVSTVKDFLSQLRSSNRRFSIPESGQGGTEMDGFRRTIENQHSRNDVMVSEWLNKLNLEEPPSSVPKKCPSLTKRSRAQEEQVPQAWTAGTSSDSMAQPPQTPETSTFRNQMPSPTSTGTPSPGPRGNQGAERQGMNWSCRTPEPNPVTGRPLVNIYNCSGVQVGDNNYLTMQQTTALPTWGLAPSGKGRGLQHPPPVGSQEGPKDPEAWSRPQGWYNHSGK
UniProt P53350, sequence (whole entry, looked up): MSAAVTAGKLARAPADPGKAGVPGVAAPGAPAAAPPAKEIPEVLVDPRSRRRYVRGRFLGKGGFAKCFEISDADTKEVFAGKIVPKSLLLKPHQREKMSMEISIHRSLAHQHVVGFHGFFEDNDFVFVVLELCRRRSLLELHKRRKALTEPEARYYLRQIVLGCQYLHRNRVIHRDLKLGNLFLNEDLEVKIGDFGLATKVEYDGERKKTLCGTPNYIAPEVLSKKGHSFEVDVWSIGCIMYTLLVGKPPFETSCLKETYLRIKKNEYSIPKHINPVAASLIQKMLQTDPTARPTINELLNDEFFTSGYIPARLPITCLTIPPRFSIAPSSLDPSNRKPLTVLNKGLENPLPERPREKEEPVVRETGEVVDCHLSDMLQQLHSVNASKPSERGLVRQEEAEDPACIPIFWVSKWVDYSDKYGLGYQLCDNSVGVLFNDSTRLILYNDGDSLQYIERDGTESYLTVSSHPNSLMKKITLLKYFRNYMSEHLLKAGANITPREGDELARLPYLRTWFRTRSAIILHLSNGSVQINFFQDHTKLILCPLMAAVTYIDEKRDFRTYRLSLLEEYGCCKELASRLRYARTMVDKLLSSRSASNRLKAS
UniProt P98170, sequence (whole entry, looked up): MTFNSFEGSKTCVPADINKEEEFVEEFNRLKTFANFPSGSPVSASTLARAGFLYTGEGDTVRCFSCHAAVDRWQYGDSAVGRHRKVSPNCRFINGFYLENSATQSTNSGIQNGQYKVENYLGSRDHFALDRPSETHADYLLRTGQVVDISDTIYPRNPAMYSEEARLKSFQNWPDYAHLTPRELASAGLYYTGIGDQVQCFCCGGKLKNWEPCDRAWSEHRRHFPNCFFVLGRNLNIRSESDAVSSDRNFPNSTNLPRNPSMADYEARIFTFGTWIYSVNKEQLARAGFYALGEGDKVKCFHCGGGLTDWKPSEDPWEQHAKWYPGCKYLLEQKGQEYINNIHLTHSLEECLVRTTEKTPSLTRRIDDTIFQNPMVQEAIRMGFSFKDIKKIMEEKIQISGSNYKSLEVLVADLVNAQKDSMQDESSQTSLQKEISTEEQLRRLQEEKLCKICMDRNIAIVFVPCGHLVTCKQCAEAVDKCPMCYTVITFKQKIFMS
UniProt P04637, sequence (whole entry, unmodified, looked up): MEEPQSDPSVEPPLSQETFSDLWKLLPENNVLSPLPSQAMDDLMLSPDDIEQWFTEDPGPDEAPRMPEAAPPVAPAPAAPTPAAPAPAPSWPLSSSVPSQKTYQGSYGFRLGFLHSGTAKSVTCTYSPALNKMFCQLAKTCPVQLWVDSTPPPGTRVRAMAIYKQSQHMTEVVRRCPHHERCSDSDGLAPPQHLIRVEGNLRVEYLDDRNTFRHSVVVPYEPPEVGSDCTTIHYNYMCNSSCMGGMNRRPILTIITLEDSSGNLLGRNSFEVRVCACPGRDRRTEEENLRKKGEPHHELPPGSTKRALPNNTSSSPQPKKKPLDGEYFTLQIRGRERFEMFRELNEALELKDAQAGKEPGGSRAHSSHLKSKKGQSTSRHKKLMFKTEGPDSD

NS(=O)(=O)c1c(F)c(F)c(S(=O)(=O)CCc2ccccc2)c(NC2CCCCCCCCCCC2)c1F  Kd (CA12; fluorescent thermal shift; pH 7.0, 37 °C, observed): 0.065 µM
CC[C@H](C)[C@H](NC(=O)[C@H](CC(=O)O)NC(=O)[C@H](CC(=O)O)NC(=O)[C@@H]1CCCN1C(=O)[C@H](CO)NC(=O)[C@H](CC(C)C)NC(=O)[C@H](CCSC)NC(=O)[C@H](CC(C)C)NC(=O)[C@H](CC(=O)O)NC(=O)[C@H](CC(=O)O)NC(=O)[C@@H](N)CCSC)C(=O)N[C@@H](CCC(=O)O)C(=O)N[C@@H](CCC(N)=O)C(=O)N[C@@H](Cc1c[nH]c2ccccc12)C(=O)N[C@@H](Cc1ccccc1)C(=O)N[C@H](C(=O)N[C@@H](CCC(=O)O)C(=O)N[C@@H](CC(=O)O)C(=O)O)[C@@H](C)O  Kd (DBD-F; fluorescence anisotropy): 99.9 µM
CC(=O)NCCCC[C@H](NC(=O)CNC(=O)CNC(=O)[C@@H](NC(=O)[C@H](CO)NC(=O)[C@H](CCCCN)NC(=O)[C@H](CCCNC(=N)N)NC(=O)[C@H](C)NC(=O)[C@@H](NC(=O)[C@H](CCC(N)=O)NC(=O)[C@H](CCCCN)NC(=O)[C@@H](NC(=O)[C@H](CCCNC(=N)N)NC(=O)[C@H](C)N)[C@@H](C)O)[C@@H](C)O)[C@@H](C)O)C(=O)N[C@@H](C)C(=O)N1CCC[C@H]1C(=O)N[C@@H](CCCNC(=N)N)C(=O)N[C@@H](CCCCN)C(=O)N[C@@H](CCC(N)=O)C(=O)O  Kd (DPF3 double PHD finger domain; binding): 0.5 µM
O=C(O)CCC(=O)C(=O)O  Kd (EIC domain; binding): 2200 ± 200 µM
CN1CCN(/C=C2\CCn3c2nc(=O)c2c(Cl)cccc23)CC1  Kd (SMARCA4; binding): 0.417 µM
O=C(Nc1cccc(C(=O)Nc2ccc(S(=O)(=O)O)c3cc(S(=O)(=O)O)cc(S(=O)(=O)O)c23)c1)Nc1cccc(C(=O)Nc2ccc(S(=O)(=O)O)c3cc(S(=O)(=O)O)cc(S(=O)(=O)O)c23)c1  Kd (E3 ubiquitin-protein ligase XIAP, BIR1 domain (XIAP, Homo sapiens, UniProt P98170); binding, tryptophan fluorescence): 24 ± 4 µM
NS(=O)(=O)c1c(F)c(F)c([S+]([O-])CCO)c(F)c1NC1CCCCCCC1 (stereo not drawn)  Kd (CA2; thermal shift; pH 7.0, 37 °C): 2.2 µM
CC(=O)O[C@H]1C(=O)[C@]2(C)[C@@H](OC(=O)CCCNC(=O)c3cc4cc(F)c(O)c(F)c4oc3=O)C[C@H]3OC[C@@]3(OC(C)=O)[C@H]2[C@H](OC(=O)c2ccccc2)[C@]2(O)C[C@H](OC(=O)[C@H](O)[C@@H](NC(=O)c3ccccc3)c3ccccc3)C(C)=C1C2(C)C  Kd (cross-linked microtubules; binding; room temperature): 0.265 µM
OC[C@H]1O[C@@H](OCc2cn([C@@H]3O[C@H](CO)[C@@H](n4cc(-c5ccc(-c6cn([C@H]7[C@H](O)[C@@H](O)[C@H](n8cc(CO[C@@H]9O[C@H](CO)[C@H](O)[C@H](O)[C@H]9O)nn8)O[C@@H]7CO)nn6)cc5)nn4)[C@H](O)[C@H]3O)nn2)[C@H](O)[C@@H](O)[C@H]1O  Kd (LecA lectin, Pseudomonas aeruginosa): 0.016 µM
CCOC(=O)c1oc2ccccc2c1CBr  Kd (Serine/threonine-protein kinase PLK1, polo-box domain (PLK1, Homo sapiens, UniProt P53350); microscale thermophoresis): 13 µM
O=C(Nc1cccc(Br)c1)Nc1cc(Oc2ccc3nc(NC(=O)C4CC4)sc3c2)ccc1F  Kd (RIPK3 (Homo sapiens, UniProt Q9Y572)): 0.08 µM
NS(=O)(=O)c1c(F)c(F)c(S(=O)(=O)CCc2ccccc2)c(N[C@H]2CCc3ccccc32)c1F  Kd (CA2; thermal shift; pH 7.0, 37 °C): 0.0029 µM
O=C(O)CCC(NC(=O)NC(CCCCNC(=O)C(Cc1ccc2ccccc2c1)NC(=O)C1CCC(CNC(=O)CCCCCNC(=S)Nc2ccc3c(c2)C(=O)OC32c3ccc(O)cc3Oc3cc(O)ccc32)CC1)C(=O)O)C(=O)O (stereo not drawn)  Kd (glutamate carboxypeptidase III; binding): ~0.001 µM
CCn1c2ccccc2c2cc(CNC)ccc21  Kd (TP53 (Homo sapiens, UniProt P04637, M133L/N239Y/N268D/V203A/Y220C); binding, ITC): ~125 µM
C[C@H](NC(=O)[C@@H]1CCCN1C(=O)[C@@H]1CCCN1C(=O)[C@H](C)NC(=O)[C@@H](NC(=O)[C@H](CO)NC(=O)CNC(=O)[C@@H]1CCCN1C(=O)[C@H](C)NC(=O)[C@@H]1CCCN1C(=O)[C@@H](N)CCCNC(=N)N)[C@@H](C)O)C(=O)N[C@@H](Cc1c[nH]cn1)C(=O)NCC(=O)O  Kd (16 A monoclonal antibody; SPR): 0.541 µM
O=C(O)c1cc([N+](=O)[O-])ccc1NCCCc1ccccc1  Kd (Cystic fibrosis transmembrane conductance regulator, pore-binding site (CFTR, Homo sapiens, UniProt P13569, K1250A); pore binding; 0 mV): 150 µM
CN1CCN(c2ccc3nc(-c4ccc5nc(-c6cccc(OCCCC(=O)NCCCN=[N+]=[N-])c6)[nH]c5c4)[nH]c3c2)CC1  Kd (5'CGG/3'GGC RNA motif; binding): 0.375 ± 0.026 µM
NS(=O)(=O)c1c(F)c(F)c(S(=O)(=O)CCc2ccccc2)c(N2CCOCC2)c1F  Kd (CA12; fluorescent thermal shift; pH 7.0, 37 °C, observed): 0.15 µM
CN(C)c1ccc(/N=N/c2ccc(S(=O)(=O)O)cc2)cc1  Kd (bovine serum albumin; binding, equilibrium dialysis): 280 µM
NS(=O)(=O)c1c(F)c(F)c(NCCc2ccc(O)cc2)c(F)c1NC1CCCCCCC1  Kd (CA2; thermal shift; pH 7.0, 37 °C): 10 µM
N=C(N)NCCC[C@H](NC(=O)[C@H](CSSC[C@H](NC(=O)[C@H](Cc1ccc(O)cc1)NC(=O)[C@H](Cc1c[nH]c2ccccc12)NC(=O)[C@H](CCCNC(=N)N)NC(=O)[C@@H](N)Cc1c[nH]c2ccccc12)C(=O)N[C@@H](CCCNC(=N)N)C(N)=O)NC(=O)[C@H](Cc1ccc(O)cc1)NC(=O)[C@H](Cc1c[nH]c2ccccc12)NC(=O)[C@H](CCCNC(=N)N)NC(=O)[C@@H](N)Cc1c[nH]c2ccccc12)C(N)=O (single isomer, unassigned)  Kd (Holliday junction DNA; binding, EMSA; dimer equivalents): 0.014 µM
NS(=O)(=O)c1cc(C(=O)NCCCC(=O)O)c(S(=O)(=O)c2ccccc2)cc1Cl  Kd (CA2; thermal shift; pH 7.0, 37 °C): 0.015 µM
CN[C@@H](C)C(=O)Nc1nc(-c2ccc(Br)cc2)c(-c2ccccc2)s1  Kd (XIAP BIR3 domain): 0.74 µM
CC(C)(C)Nc1c(F)c(S(N)(=O)=O)c(F)c(F)c1S(=O)(=O)CCc1ccccc1  Kd (CA2; thermal shift; pH 7.0, 37 °C): 0.0017 µM
Cc1ccc2oc(=O)c(-c3nc4cnccc4[nH]3)cc2c1  Kd (Bifunctional arginine demethylase and lysyl-hydroxylase JMJD6 (Homo sapiens, UniProt Q6NYC1); binding, surface plasmon resonance): 3.31 µM
NS(=O)(=O)c1c(F)c(F)c(S(=O)(=O)CCO)c(NC2CCCCCCCCCCC2)c1F  Kd (CA12; fluorescent thermal shift; pH 7.0, 37 °C, observed): 0.005 µM
COc1ccc2nc3cc(Cl)ccc3c(NCCCCNc3nc(N)nc(N)n3)c2c1  Kd (r(CCG)2 RNA, C–C mismatch; binding): 14 µM

Excerpt of the above:
CN[C@@H](C)C(=O)Nc1nc(-c2ccc(Br)cc2)c(-c2ccccc2)s1  Kd (XIAP BIR3 domain): 0.74 µM
O=C(Nc1cccc(C(=O)Nc2ccc(S(=O)(=O)O)c3cc(S(=O)(=O)O)cc(S(=O)(=O)O)c23)c1)Nc1cccc(C(=O)Nc2ccc(S(=O)(=O)O)c3cc(S(=O)(=O)O)cc(S(=O)(=O)O)c23)c1  Kd (E3 ubiquitin-protein ligase XIAP, BIR1 domain (XIAP, Homo sapiens, UniProt P98170); binding, tryptophan fluorescence): 24 ± 4 µM
O=C(O)c1cc([N+](=O)[O-])ccc1NCCCc1ccccc1  Kd (Cystic fibrosis transmembrane conductance regulator, pore-binding site (CFTR, Homo sapiens, UniProt P13569, K1250A); pore binding; 0 mV): 150 µM
CC(C)(C)Nc1c(F)c(S(N)(=O)=O)c(F)c(F)c1S(=O)(=O)CCc1ccccc1  Kd (CA2; thermal shift; pH 7.0, 37 °C): 0.0017 µM
